Published values of several laboratories.
Parts stem from different laboratories: compare values within a part only.
Chain of UniProt Q09013 (whole entry, looked up): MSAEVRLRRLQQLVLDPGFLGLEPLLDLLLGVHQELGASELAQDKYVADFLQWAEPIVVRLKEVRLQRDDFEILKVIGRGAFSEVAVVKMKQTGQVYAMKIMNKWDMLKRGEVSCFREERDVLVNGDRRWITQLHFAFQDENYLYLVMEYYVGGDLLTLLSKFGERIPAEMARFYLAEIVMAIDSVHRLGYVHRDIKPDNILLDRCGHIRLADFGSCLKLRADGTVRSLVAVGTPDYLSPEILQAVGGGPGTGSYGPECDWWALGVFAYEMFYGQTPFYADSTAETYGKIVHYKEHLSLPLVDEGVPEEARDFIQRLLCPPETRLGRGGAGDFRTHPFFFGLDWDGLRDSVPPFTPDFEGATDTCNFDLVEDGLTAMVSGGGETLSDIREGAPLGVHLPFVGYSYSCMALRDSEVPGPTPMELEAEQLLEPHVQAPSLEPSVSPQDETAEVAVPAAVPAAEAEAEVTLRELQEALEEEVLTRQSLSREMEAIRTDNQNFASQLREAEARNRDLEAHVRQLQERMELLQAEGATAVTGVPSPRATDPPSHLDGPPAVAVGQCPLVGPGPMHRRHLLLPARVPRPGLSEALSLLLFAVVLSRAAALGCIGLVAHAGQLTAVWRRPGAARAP
Chain of UniProt Q8N752 (whole entry, looked up): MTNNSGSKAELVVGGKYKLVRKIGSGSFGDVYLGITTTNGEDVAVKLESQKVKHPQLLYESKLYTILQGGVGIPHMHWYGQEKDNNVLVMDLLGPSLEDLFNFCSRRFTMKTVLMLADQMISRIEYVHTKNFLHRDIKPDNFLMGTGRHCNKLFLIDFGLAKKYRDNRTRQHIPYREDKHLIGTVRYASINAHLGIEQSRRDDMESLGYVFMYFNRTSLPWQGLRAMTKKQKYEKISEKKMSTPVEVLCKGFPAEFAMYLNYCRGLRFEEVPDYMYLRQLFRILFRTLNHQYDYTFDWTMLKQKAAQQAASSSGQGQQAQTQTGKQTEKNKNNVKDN
Chain of UniProt P53778 (whole entry, looked up): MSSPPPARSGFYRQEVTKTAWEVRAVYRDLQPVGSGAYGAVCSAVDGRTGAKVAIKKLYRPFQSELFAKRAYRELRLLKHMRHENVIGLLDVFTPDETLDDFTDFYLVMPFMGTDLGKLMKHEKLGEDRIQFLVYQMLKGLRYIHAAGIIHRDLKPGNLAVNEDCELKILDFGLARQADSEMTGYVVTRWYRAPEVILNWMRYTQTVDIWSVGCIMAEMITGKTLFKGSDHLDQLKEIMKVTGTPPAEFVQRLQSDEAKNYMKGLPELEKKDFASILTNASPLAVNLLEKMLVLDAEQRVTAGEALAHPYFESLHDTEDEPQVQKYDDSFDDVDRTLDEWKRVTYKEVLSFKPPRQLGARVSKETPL
Chain of UniProt Q02779 (whole entry, looked up): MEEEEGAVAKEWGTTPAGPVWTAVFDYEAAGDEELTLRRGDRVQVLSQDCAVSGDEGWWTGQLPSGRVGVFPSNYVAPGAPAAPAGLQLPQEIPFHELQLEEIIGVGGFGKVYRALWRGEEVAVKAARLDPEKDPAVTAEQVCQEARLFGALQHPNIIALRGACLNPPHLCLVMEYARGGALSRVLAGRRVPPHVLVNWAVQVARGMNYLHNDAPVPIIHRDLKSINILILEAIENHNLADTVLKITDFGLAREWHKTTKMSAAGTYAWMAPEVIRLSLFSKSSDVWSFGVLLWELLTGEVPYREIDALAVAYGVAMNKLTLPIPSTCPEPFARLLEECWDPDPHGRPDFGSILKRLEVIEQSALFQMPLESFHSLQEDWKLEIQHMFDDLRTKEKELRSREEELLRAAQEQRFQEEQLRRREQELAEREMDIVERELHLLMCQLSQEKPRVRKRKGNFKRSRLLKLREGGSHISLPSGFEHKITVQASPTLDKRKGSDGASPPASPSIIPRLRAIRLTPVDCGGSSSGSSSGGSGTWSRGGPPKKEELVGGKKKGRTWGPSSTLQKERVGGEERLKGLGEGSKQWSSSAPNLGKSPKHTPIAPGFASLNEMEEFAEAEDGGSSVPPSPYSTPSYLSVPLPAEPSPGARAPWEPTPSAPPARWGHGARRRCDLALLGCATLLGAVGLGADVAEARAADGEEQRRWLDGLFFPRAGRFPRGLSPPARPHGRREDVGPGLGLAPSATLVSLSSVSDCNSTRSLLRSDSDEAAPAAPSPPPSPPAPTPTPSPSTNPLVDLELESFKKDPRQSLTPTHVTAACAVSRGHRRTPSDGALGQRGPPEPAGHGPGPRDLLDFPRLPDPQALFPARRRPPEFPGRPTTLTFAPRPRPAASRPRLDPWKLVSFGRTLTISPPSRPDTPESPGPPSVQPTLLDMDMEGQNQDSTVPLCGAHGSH
Chain of UniProt P30291 (whole entry, looked up): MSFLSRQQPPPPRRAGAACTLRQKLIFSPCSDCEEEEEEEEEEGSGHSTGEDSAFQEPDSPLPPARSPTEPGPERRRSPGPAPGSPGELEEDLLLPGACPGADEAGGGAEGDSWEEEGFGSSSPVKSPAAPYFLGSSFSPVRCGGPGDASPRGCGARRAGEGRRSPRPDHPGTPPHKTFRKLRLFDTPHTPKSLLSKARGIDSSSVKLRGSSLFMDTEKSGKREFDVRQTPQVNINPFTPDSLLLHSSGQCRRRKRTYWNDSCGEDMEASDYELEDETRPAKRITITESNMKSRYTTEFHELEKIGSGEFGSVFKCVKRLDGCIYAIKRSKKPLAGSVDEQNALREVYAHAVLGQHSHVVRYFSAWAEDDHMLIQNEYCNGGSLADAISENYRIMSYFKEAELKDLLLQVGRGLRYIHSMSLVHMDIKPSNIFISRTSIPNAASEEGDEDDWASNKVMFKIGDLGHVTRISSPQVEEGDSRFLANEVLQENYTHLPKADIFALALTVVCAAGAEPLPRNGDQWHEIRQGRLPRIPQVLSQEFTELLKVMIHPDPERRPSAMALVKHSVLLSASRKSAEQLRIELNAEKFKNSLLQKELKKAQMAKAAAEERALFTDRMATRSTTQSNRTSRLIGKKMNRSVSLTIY
Chain of UniProt Q9BWU1 (whole entry, looked up): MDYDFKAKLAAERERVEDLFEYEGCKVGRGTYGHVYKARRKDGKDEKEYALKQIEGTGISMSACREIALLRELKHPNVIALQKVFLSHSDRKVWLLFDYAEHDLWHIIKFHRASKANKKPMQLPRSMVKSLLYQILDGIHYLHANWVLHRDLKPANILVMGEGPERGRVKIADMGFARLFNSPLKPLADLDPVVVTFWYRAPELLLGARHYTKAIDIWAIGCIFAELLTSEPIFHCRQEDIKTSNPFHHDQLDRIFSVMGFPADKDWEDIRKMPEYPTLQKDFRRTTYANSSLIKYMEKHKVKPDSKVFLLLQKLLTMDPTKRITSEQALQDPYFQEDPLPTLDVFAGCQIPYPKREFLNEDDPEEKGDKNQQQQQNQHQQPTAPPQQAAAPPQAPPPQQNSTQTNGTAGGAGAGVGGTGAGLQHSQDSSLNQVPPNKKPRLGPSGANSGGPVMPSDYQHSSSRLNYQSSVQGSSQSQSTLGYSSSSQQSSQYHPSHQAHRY
Chain of UniProt O94806 (whole entry, looked up): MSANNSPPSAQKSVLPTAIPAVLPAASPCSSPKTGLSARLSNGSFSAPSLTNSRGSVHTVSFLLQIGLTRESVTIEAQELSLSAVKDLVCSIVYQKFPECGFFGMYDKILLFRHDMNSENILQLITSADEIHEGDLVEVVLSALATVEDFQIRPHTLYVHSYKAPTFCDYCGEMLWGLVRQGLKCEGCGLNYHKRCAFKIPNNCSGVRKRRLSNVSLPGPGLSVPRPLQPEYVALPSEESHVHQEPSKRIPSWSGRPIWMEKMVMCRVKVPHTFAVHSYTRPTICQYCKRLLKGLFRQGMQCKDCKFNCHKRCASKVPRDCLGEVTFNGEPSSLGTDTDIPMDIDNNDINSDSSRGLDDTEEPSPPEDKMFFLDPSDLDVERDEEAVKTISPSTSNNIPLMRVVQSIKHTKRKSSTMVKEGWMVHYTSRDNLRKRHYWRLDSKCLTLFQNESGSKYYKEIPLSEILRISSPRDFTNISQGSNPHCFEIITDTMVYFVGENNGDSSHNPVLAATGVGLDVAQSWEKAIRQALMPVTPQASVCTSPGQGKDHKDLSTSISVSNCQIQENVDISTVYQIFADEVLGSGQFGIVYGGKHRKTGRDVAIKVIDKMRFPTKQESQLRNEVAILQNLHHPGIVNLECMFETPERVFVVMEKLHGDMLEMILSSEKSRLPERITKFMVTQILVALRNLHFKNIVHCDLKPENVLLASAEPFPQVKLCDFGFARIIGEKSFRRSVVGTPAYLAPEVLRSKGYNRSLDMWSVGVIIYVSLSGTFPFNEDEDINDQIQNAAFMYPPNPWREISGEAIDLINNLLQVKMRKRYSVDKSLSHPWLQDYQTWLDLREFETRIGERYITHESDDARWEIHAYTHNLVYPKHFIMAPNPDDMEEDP
Chain of UniProt Q9NWZ3 (whole entry, looked up): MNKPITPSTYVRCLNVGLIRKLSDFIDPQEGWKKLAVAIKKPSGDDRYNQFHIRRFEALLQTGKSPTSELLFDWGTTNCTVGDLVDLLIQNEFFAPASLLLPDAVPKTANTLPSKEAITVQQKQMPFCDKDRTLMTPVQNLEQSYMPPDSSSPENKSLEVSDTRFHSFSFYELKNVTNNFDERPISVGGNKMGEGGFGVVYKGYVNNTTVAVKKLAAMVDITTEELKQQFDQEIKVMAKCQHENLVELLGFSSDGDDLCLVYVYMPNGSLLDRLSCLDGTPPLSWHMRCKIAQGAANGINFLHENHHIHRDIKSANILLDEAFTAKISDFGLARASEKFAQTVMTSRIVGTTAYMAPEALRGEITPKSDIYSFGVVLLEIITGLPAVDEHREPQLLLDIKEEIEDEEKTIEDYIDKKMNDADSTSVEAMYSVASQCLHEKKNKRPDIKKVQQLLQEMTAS

Block 1
SMILES: O=C(Nc1ccccc1)Nc1cccc(Oc2ccc3nccn3n2)c1
Concentration: 1 µM
It gave 100% for remaining binding (MAPK10 (Homo sapiens, UniProt P53779); competitive binding; JNK3).
DMPK (Homo sapiens, UniProt Q09013); competitive binding panel; reference: vehicle — remaining binding: 96%.
It gave 100% for remaining binding (TNNI3K (Homo sapiens, UniProt Q59H18); competitive binding panel; reference: vehicle).
The remaining binding was 82% (HUNK (Homo sapiens, UniProt P57058); competitive binding panel; reference: vehicle).
For DYRK2 (Homo sapiens, UniProt Q92630); competitive binding panel; reference: vehicle: remaining binding read 100%.
The remaining binding was 100% (SRPK1 (Homo sapiens, UniProt Q96SB4); competitive binding panel; reference: vehicle).
For IRAK1 (Homo sapiens, UniProt P51617); competitive binding panel; reference: vehicle: remaining binding read 91%.
The remaining binding was 81% (MAPK12 (Homo sapiens, UniProt P53778); competitive binding; p38-gamma).
CSK (Homo sapiens, UniProt P41240); competitive binding panel; reference: vehicle — remaining binding: 100%.
The remaining binding was 70% (EPHA2 (Homo sapiens, UniProt P29317); competitive binding panel; reference: vehicle).
The remaining binding was 41% (CSNK1A1L (Homo sapiens, UniProt Q8N752); competitive binding panel; reference: vehicle).
The remaining binding was 100% (RPS6KA5 (Homo sapiens, UniProt O75582); competitive binding scan; C-terminal kinase domain 2).
ACVR2B (Homo sapiens, UniProt Q13705); competitive binding panel; reference: vehicle — remaining binding: 94%.
The remaining binding was 97% (SRPK2 (Homo sapiens, UniProt P78362); competitive binding panel; reference: vehicle).
For PAK2 (Homo sapiens, UniProt Q13177); competitive binding panel; reference: vehicle: remaining binding read 100%.
The remaining binding was 100% (NEK5 (Homo sapiens, UniProt Q6P3R8); competitive binding panel; reference: vehicle).
It gave 100% for remaining binding (SGK1 (Homo sapiens, UniProt O00141); competitive binding; SGK).
The remaining binding was 100% (STK39 (Homo sapiens, UniProt Q9UEW8); competitive binding panel; reference: vehicle).

Block 2
SMILES: Cc1noc([C@H]2C[C@@H](c3ccc(C(F)(F)F)cc3)CN(C(=O)N3CCS(=O)(=O)C3)C2)n1
Concentration: 1 µM
The remaining binding was 100% (PRKD3 (Homo sapiens, UniProt O94806); cell-free assay, competition with immobilised ligand).
The remaining binding was 100% (LIM domain kinase 2 (LIMK2, Homo sapiens, UniProt P53671); cell-free assay, competition with immobilised ligand).
MAP3K6 (Homo sapiens, UniProt O95382); cell-free assay, competition with immobilised ligand — remaining binding: 92%.
It gave 100% for remaining binding (CSNK1D (Homo sapiens, UniProt P48730); cell-free assay, competition with immobilised ligand).
WEE1 (Homo sapiens, UniProt P30291); cell-free assay, competition with immobilised ligand — remaining binding: 100%.
EGFR (Homo sapiens, UniProt P00533, L858R); cell-free assay, competition with immobilised ligand — remaining binding: 100%.
ACVR1B (Homo sapiens, UniProt P36896); cell-free assay, competition with immobilised ligand — remaining binding: 100%.
MYLK2 (Homo sapiens, UniProt Q9H1R3); cell-free assay, competition with immobilised ligand — remaining binding: 100%.
It gave 100% for remaining binding (TAOK3 (Homo sapiens, UniProt Q9H2K8); cell-free assay, competition with immobilised ligand).
HCK (Homo sapiens, UniProt P08631); cell-free assay, competition with immobilised ligand — remaining binding: 100%.
MAP3K19 (Homo sapiens, UniProt Q56UN5); cell-free assay, competition with immobilised ligand — remaining binding: 77%.
MAP3K15 (Homo sapiens, UniProt Q6ZN16); cell-free assay, competition with immobilised ligand — remaining binding: 100%.
For PLK1 (Homo sapiens, UniProt P53350); cell-free assay, competition with immobilised ligand: remaining binding read 81%.
MET (Homo sapiens, UniProt P08581, M1250T); cell-free assay, competition with immobilised ligand — remaining binding: 100%.
For CDK19 (Homo sapiens, UniProt Q9BWU1); competition binding: remaining binding read 100%.
It gave 100% for remaining binding (Ribosomal protein S6 kinase alpha-2, N-terminal kinase domain (RPS6KA2, Homo sapiens, UniProt Q15349); cell-free assay, competition with immobilised ligand).
It gave 100% for remaining binding (SBK1 (Homo sapiens, UniProt Q52WX2); cell-free assay, competition with immobilised ligand).
It gave 100% for remaining binding (MAP3K1 (Homo sapiens, UniProt Q13233); cell-free assay, competition with immobilised ligand).
Aurora kinase C (AURKC, Homo sapiens, UniProt Q9UQB9); cell-free assay, competition with immobilised ligand — remaining binding: 100%.
For DMPK (Homo sapiens, UniProt Q09013); cell-free assay, competition with immobilised ligand: remaining binding read 100%.
BMPR1B (Homo sapiens, UniProt O00238); cell-free assay, competition with immobilised ligand — remaining binding: 100%.
The remaining binding was 100% (CSNK1A1L (Homo sapiens, UniProt Q8N752); cell-free assay, competition with immobilised ligand).
For Tyrosine-protein kinase ABL1, non-phosphorylated (ABL1, Homo sapiens, UniProt P00519, F317L); cell-free assay, competition with immobilised ligand: remaining binding read 100%.
GSK3B (Homo sapiens, UniProt P49841); cell-free assay, competition with immobilised ligand — remaining binding: 92%.
It gave 100% for remaining binding (MAP2K4 (Homo sapiens, UniProt P45985); cell-free assay, competition with immobilised ligand).

Block 3
Organism: Plasmodium berghei
Action: inhibitor
Cells: Huh-7
Strain: liver stage
Concentration: 10 µM
Time: 24 h
Reference: untreated control
For `Cc1ccc(Cl)c(Nc2ccccc2C(=O)O)c1Cl`, the infection rate was 105%.
For `CCOc1ccc2ccccc2c1C(=O)N[C@@H]1C(=O)N2[C@@H]1SC(C)(C)[C@@H]2C(=O)O`, the infection rate was 96.5%.
For `O=C(CCCCC(=O)Nc1c(I)cc(I)c(C(=O)O)c1I)Nc1c(I)cc(I)c(C(=O)O)c1I`, the infection rate was 116%.
`CCOc1ccc2nc(S(N)(=O)=O)sc2c1` has an infection rate of 117%.
`CNC1(C)C2CCC(C2)C1(C)C` (centres unmarked) gave an infection rate of 102%.
The infection rate of `CC1=CC(=O)c2ccccc2C1=O` is reported as 75%.
With `CCC[C@@H]1C[C@@H](C(=O)N[C@@H]([C@H]2O[C@H](SC)[C@H](O)[C@@H](O)[C@H]2O)[C@@H](C)O)N(C)C1` the infection rate was 106%.
With `CCN(CC)CCOC(=O)[C@H](Cc1cccc2ccccc12)C[C@H]1CCCO1` the infection rate was 76.2%.
`COc1c(N2C[C@@H]3CCCN[C@@H]3C2)c(F)cc2c(=O)c(C(=O)O)cn(C3CC3)c12` gave an infection rate of 93.8%.
`CC(O)(P(=O)(O)O)P(=O)(O)O` has an infection rate of 95.6%.
For `C1N2CN3CN1CN(C2)C3`, the infection rate was 94.4%.
With `CC(C)[C@H]1CC[C@H](C(=O)N[C@H](Cc2ccccc2)C(=O)O)CC1` the infection rate was 127%.
`CC(=O)OC(C)C[N+](C)(C)C` (centres unmarked) gave an infection rate of 99%.
The infection rate of `Cc1cc(-c2ccccc2)nnc1NCCN1CCOCC1` is reported as 104%.
For `CCC(NC(C)C)C(O)c1ccc(O)c(O)c1` (centres unmarked), the infection rate was 92.7%.
The infection rate of `CN1CCOC(c2ccccc2)c2ccccc2C1` (centres unmarked) is reported as 90%.
`CC1(C)O[C@@H]2C[C@H]3[C@@H]4CCC5=CC(=O)CC[C@]5(C)[C@@]4(F)[C@@H](O)C[C@]3(C)[C@]2(C(=O)CCl)O1` has an infection rate of 118%.

Block 4
Compound: N#C/C(=C(/N)SC1C=CC=CC1)c1cccc(C(O)c2ccncc2)c1 (centres unmarked)
Observed: enzyme activity
Action: inhibitor
Concentration: 0.5 µM
Reference: control
PRKCD (Homo sapiens, UniProt Q05655) — remaining activity: 98.6%.
For MAPK12 (Homo sapiens, UniProt P53778): remaining activity read 97.2%.
It gave 114% for remaining activity (MKNK2 (Homo sapiens, UniProt Q9HBH9)).
For MAP3K10 (Homo sapiens, UniProt Q02779): remaining activity read 90.5%.
For LRRK2 (Homo sapiens, UniProt Q5S007): remaining activity read 102%.
The remaining activity was 79% (MAP4K2 (Homo sapiens, UniProt Q12851)).
It gave 109% for remaining activity (CHEK1 (Homo sapiens, UniProt O14757)).
It gave 97.8% for remaining activity (MAP2K6 (Homo sapiens, UniProt P52564)).
MAPK13 (Homo sapiens, UniProt O15264) — remaining activity: 98.8%.
STK38 (Homo sapiens, UniProt Q15208) — remaining activity: 98.3%.
The remaining activity was 110% (WNK2 (Homo sapiens, UniProt Q9Y3S1)).
The remaining activity was 97.1% (CSNK1A1 (Homo sapiens, UniProt P48729)).
It gave 98.5% for remaining activity (NEK4 (Homo sapiens, UniProt P51957)).
The remaining activity was 93.5% (BTK (Homo sapiens, UniProt Q06187)).
For IRAK4 (Homo sapiens, UniProt Q9NWZ3): remaining activity read 102%.
For KIT (Homo sapiens, UniProt P10721): remaining activity read 88.5%.
For Cyclin-dependent kinase 9, with cyclin T1 (CDK9, Homo sapiens, UniProt P50750): remaining activity read 101%.
PRKCI (Homo sapiens, UniProt P41743) — remaining activity: 93.6%.
For AKT3 (Homo sapiens, UniProt Q9Y243): remaining activity read 101%.
It gave 107% for remaining activity (EPHA5 (Homo sapiens, UniProt P54756)).
CSNK2A1 (Homo sapiens, UniProt P68400) — remaining activity: 98.7%.
It gave 97.9% for remaining activity (LYN (Homo sapiens, UniProt P07948)).
The remaining activity was 104% (PRKG1 (Homo sapiens, UniProt Q13976)).

For quick reference, copied from above (block 2):
BMPR1B (Homo sapiens, UniProt O00238); cell-free assay, competition with immobilised ligand — remaining binding: 100%.
The remaining binding was 100% (PRKD3 (Homo sapiens, UniProt O94806); cell-free assay, competition with immobilised ligand).
ACVR1B (Homo sapiens, UniProt P36896); cell-free assay, competition with immobilised ligand — remaining binding: 100%.
MAP3K15 (Homo sapiens, UniProt Q6ZN16); cell-free assay, competition with immobilised ligand — remaining binding: 100%.
WEE1 (Homo sapiens, UniProt P30291); cell-free assay, competition with immobilised ligand — remaining binding: 100%.
The remaining binding was 100% (CSNK1A1L (Homo sapiens, UniProt Q8N752); cell-free assay, competition with immobilised ligand).
It gave 100% for remaining binding (TAOK3 (Homo sapiens, UniProt Q9H2K8); cell-free assay, competition with immobilised ligand).
The remaining binding was 100% (LIM domain kinase 2 (LIMK2, Homo sapiens, UniProt P53671); cell-free assay, competition with immobilised ligand).
